Measurements collected from several papers.
Parts stem from different laboratories: compare values within a part only. Positions count from the first letter of the parent shown.

Set 1
Target: ABI1, truncated, D143A, DHFR fusion (Arabidopsis thaliana)
Technique: DHFR PCA, deep sequencing
Matrix: yeast
Notes: methotrexate growth selection, single substitutions
Added: (+)-ABA 0.032 µM
Reference: wild-type fitted maximum
Direction: higher = stronger binding
Starting sequence: PYL1, truncated, DHFR fusion (Arabidopsis thaliana); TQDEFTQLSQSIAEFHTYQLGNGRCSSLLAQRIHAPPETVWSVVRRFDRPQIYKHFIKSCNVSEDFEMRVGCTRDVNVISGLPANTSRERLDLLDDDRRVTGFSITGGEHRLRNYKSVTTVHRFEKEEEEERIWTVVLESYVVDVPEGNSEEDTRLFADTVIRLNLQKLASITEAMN
Variant	relative binding score [%]
T86H	24.2
L28H	-0.958
V137R	-1.41
K116L	0.401
D159A	-0.721
T101E	-1.38
A170Q	10.1
R132Q	51.5
E64D	38
N22A	46.8
S9N	24.2
E127G	30.1
R74T	3.22
P146H	-2.08
E67R	7.01
R99Y	68.5
P83W	1.66
N77L	25.3
A13M	8.5
F103N	3.32
D65M	1.78
R24L	4.68
D144A	1.25
R32F	7.33
N114C	-4.98

Set 2
Target: Histone acetyltransferase KAT6A, winged helix 1, GST fusion (KAT6A, Homo sapiens, UniProt Q92794, residues 1-85)
Technique: protein binding microarray
Form: double-stranded DNA, one strand shown
Matrix: in vitro
Tested at: not given
Notes: 8-mer, flanks averaged, mean of 2 arrays, mostly near background
Reference: not given
Direction: higher = stronger binding
Target sequence (chain): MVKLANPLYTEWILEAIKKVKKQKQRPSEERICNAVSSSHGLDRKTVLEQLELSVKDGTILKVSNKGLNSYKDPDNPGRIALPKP
Strand	E-score
GCGATCAC	0.257
TGATCACA	-0.0865
CACCCCTA	-0.0924
CCCATAAC	-0.0581
CTATGAGC	-0.138
AGAGCACA	-0.179
AGGGGATC	-0.02
CTCCTTGA	-0.072
AGCGACAA	-0.042
GAACTAGA	-0.0747
GATTCACA	-0.199
AACGCTTA	0.0394
ATCATGTA	-0.182
AGCCGAAT	0.0591
ATCACGCC	0.0335
CATTTTAA	-0.0215
AACCGTTA	0.0647
ACTTGAAT	-0.172
AAGCCCAG	-0.243
AGTCACGC	0.0463
ACCGAGCG	0.33
ACTCCTCC	-0.0754

Set 3
Target: Hepatocyte nuclear factor 3-alpha (Foxa1, Mus musculus, UniProt P35582, residues 1-468, full length assumed)
Technique: EMSA with sequencing
Form: double-stranded DNA, one strand shown
Matrix: in vitro
Tested at: 10 and 20 nM
Notes: whole designed probe, mean of two concentrations, ends assumed
Reference: negative control set to 0
Direction: higher = stronger binding
Construct (chain): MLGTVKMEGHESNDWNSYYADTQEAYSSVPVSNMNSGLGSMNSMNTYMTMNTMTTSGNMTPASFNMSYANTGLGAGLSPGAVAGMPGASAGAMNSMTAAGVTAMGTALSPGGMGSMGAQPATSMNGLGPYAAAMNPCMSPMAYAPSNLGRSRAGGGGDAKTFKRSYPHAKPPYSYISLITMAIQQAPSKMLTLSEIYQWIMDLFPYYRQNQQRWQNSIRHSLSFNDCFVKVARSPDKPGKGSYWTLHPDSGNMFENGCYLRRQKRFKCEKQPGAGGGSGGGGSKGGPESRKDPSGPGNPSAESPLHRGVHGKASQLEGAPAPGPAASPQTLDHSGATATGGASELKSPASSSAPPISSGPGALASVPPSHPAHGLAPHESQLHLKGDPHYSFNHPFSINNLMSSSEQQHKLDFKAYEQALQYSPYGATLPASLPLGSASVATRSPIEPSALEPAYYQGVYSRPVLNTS
Strand	normalised bound fraction [ratio]
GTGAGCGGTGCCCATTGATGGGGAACATCTTCCCCCTCTTCCTTGCCCCACCAGCTCACCTTCCCGGGTTATTTGCAGATAGGAAAATAAATAAAGCCGGCATTCGTTAACCCTCTTCTGGCGCAAACTGCTGTTTGCTCTGCATGAATCATGGTCCTTACGCGACGCCAGGCTCCGGGAGAGCAAAGCACCGTGTCAGGCGCATGATCCGGGCTCGCCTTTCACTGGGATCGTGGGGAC	0.344
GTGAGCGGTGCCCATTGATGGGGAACAGCTCCCATATTTACTCCTCTCTGTTTTTTCCCACTATACTCATTCACTCAGGAATTCATTGCTTCTTGATTAGATCATTGTCTTAAATTCATGTTTACTTTTTATTTTCTGTTTTTGATCATTGCATTTATAATTGTTTCACTTTTTCTGCCACCAATTTAATGTTTCCAAGTAACTGTTCCAATCAGTTAATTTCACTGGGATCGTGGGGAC	0.391
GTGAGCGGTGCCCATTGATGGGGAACACAAAGTGCTCCAAATGTCCAGTTCCACATACTACAAAATCAGTGTTTGAAACCTGCTCTATGAAAGTGAATGTTCAACTCTGTGTCTTGAATGCAATCTTCCCAAAGAAGTTTCTGATAATGCTTCTGTCTAGATTTTATATGAAGATATTCCCGTTTCCAGCGAAATCCACCAAGCTATCCAAATATCCACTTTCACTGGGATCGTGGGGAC	-0.0376
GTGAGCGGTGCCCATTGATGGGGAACTTTCCAGCCCTTAGTTTCTGGCATTTAACCTGACTCTGGTCCCTGAATGGCATGGGAGTGCTTTCAACCACAGGTTTCCACATTCATGCAAAAGCAAACAAGTGTGATCTGACTCATTCCTACAGAGATCTTTATTTGCTTTGTGTTTCCAATGGAGAAAGAGCTTGGGAAGGGAGGATCCTAATTGTCTAAATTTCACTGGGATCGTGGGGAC	0.541
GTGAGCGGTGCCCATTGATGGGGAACCAGCCTGCAGTGCGCTCAGTTAAACAATTCCAAATCAAGGAATTTTGTCTGATACAAGGAATTTGGGGTGTGTTTTCCTAACATGCACCCTGGGTAAATAGACTGCATTTCCTGACCCAGCTGAGGGGGGGGGGCAGCCAATATGCATTGCGGCCACAAGGTGGCGCGTCTGGGCCTGGCAAACCCCTGTGCTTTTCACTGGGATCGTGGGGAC	0.234
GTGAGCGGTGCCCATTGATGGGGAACTTATGAGCCTTCCCATGTTATGGCTACATAGCTGTGATTATGTAATAAGTGGAGTTACGCTCCTGCGCTCCAAACTCGCTGAGTGTCACAGGATGTTTACCTTGGCCTATGCCTGCCTGGCTGCAGTGCAGGCATATTCCTTACAAATAAACATTTCCTGAGAAACACCTACATGCTGGGCACTCTATTAGGCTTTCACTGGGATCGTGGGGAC	0.266
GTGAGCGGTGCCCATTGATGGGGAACAATCCAGCTACCTATCTTCAGTTCCTTGGCCTTCAGCTGGCAGTGAAACAGACACATCAGCTTTAAGACTGGCAGCCAAATAGTTAACGATCTGTAAACATACATAGAGAGTATTACGCAAGTCCTGTTCAAACAGACTGGATGAAAGCCCTTCCATAAAGAACCCTTTAGGTGATGATGCTAAAATTATTTTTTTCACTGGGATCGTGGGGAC	0.385
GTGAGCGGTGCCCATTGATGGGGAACTAATAAGTAGTAATGCAATTATATTCTAAAATTCAAATGAAAATGTCTATTACTTTATACAACTATACATCTTTAAACACGAGCAATCTACAAAGTAAACACGGAATCTAAACTTACTGATGTATTCACCAAAATTACCTCTCCCTGATATATTATTCTATACATTATAAATGCCTGAGAATTGACACTTTTATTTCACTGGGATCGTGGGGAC	0.379

Set 4
Target: CCNB3, cyclin fold, Cln2 fusion (human)
Technique: yeast growth competition, sequencing
Matrix: yeast
Notes: weak parent motif
Reference: not given
Direction: higher = stronger binding
Starting sequence: WEE1 docking peptide (human); HKTFRKLRLFDTP; partner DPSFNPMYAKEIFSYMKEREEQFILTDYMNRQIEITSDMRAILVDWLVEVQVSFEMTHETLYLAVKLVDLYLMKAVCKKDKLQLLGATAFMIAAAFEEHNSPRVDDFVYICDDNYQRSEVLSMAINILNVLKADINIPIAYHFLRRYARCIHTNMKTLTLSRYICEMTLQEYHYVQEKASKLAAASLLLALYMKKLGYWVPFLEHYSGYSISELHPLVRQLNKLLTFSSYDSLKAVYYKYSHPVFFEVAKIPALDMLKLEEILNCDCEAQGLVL
Variant	normalised enrichment score
T3V	0.858
F10I	0.104
R5A	-0.819
F10C	0.111
L9T	-0.264
K2V	0.14
K6V	-0.00619
L9F	0.172
R5V	-0.229
K6C	0.489
L7T	-0.132
R8I	1.14
R8A	-0.113
L7Q	0.545
H1R	-0.0623
L7E	0.107
L9E	0.224
K6F	-0.755

Set 5
Target: CREB3L1, bZIP domain (human)
Technique: DHFR protein complementation
Matrix: yeast
Notes: single substitutions, most at no-binding floor
Reference: wild-type JUN-FOS pair
Direction: higher = stronger binding
Starting sequence: JUN, bZIP domain (human); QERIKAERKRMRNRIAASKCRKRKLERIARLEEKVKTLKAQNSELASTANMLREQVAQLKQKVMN; partner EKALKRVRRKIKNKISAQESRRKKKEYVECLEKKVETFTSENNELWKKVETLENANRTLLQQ
Variant	binding fitness [natural log]
L52F	-1.49
A40R	-1.3
E32R	-1.47
A57W	-1.44
L52H	-1.46
T37P	-1.5
R53V	-1.55
N42G	-1.46
T37G	-1.41
V35L	-1.32
A40Y	-1.46
E32H	-1.54
M51C	-1.39
A29T	-1.42
N42D	-1.46
K34C	-1.38
T48P	-1.52

Set 6
Target: RING finger protein unkempt homolog, zinc fingers 1-6, GST-SBP tag (UNK, Homo sapiens, UniProt Q9C0B0, residues 30-357)
UniProt Q9C0B0, sequence (30-357, looked up): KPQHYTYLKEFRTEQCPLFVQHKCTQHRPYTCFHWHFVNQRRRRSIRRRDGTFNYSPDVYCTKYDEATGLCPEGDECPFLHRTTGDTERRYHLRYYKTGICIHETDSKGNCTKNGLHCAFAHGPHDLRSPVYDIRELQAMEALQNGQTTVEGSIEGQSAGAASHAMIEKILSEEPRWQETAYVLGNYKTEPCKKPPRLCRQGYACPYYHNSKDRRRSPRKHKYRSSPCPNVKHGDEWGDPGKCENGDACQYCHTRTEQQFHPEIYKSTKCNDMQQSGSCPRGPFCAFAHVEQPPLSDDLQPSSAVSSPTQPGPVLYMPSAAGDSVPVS
Technique: RNA Bind-n-Seq
Form: RNA
Matrix: in vitro
Tested at: not given
Notes: RNA with constant flanks, human and mouse sites, ends assumed
Reference: input RNA pool
Direction: higher = stronger binding
Strand	bound/input enrichment [ratio]
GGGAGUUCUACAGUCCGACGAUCGAGCAGAGCCUGCACGAUGUGCUCUUCGACCUGAGCAAGACAGUGCUGCGCUGCAGCGGGAGCAUGACCAGGGACUCCUUCUCGGGGCUCUCCACAGAUAUGCACGACUAUGGUUUAAUCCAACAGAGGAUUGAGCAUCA	0.0959
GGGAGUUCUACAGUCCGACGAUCGUGACCUGUGAGGACAUAAUGCCUUGGUUUUUUCUAAUGUAGAUGAUAUGGCUGUGAUACAUUAGGGCCAGCGUUAACCUCUGCUCCUCCUCCCUCUGUAGUUUUUACCUACAAUCAAUUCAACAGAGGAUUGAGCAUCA	0.318
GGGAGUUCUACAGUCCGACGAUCGGUCGGAGGGACUUUGUCUACCCUUCCUCAACCCGAGACCCUAGUGCCUCUAACGGAGGGGGCAGCCCAGCCAGGAGGGAAGAGAAGAAGAGAAAGGCCGCCAGGCUCAAGUUUGACUUCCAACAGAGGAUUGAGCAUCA	1.11
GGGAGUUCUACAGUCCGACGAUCGGCCAGGAACAGUCUUCACGGGGACAAAGAAUUUUAUCUAUUCCAAUUUGGCCCCCAAACCUAGGUAUCUCACAGAACUGUGUGUAUGAGGUACAGCAGGUACCAAAAGUAGAAAAGACACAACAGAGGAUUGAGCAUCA	0.892
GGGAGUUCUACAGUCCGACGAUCUUACGUUUAAGACCUAGCCUUUGAUGUGGUAUUUAUGUAACGUUUGUACAGUGAUUUACUCUUAGUUUGUUACCUUUAUCACCUGUACAAUUGCACUAUUUAAAUGUACUCCUUCUUAAUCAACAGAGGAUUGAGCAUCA	1.34
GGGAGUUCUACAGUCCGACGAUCGGAAAUGUUCAGCCAUACUGUGGCCACGACUGGACCCUUUGUUUUACAGGAGAUUCUAAACUUGCCUCAAGUAUGCGCUAUGUGGAAACACAAUCAAUGCAGAUAGGAGCAUCCUAUAUGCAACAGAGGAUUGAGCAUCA	0.123
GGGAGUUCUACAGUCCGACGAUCGUGGGAGUUCUCCUACAGGAUCAUGAUGUUCGGCAGAGUGAAUUUCAGCAACUUCCGUACCAUAGGAUUUUUAUCAUGCUGCUGUUGGAGCUCAAUGCACCCGAGCAUGUGUUGGAAACCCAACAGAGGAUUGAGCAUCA	5.41
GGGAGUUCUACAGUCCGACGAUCAAAAAUUUUUUAUUAAAAAAAAUAAAAGAAAAGGACUCCGUCACUGUUACAUUUUUUCCCUCGUUUUACAAUUCUGGUGUGUGACCGAGACAGCCCACGGGAGACGCUGCCGUGAGGUGGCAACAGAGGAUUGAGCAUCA	0.39
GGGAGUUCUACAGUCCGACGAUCAGGCCCCAAACCCAGCCGUUUAUAUGAAAUUGUAGAAUUUUUAACUAUUGGAAACAAAUGGUUUUUUUAUAUAUACUUACUAUGCAGGCCAAAGGGGCCCCACGGACUCACCCAGGGACACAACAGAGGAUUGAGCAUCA	0.624
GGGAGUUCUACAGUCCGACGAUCCCAUGACCAGUGUGACUCAAAGCAAUGUGAUCUCCCUUGAUUCAAACGCACACCUCUGCCCUGCUGGAGAAGGUUUAGGGCCAUGUCUGAGAGAUUGGUCUUUCAUUGGGCAACGGGGGGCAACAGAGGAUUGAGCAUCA	0.0585
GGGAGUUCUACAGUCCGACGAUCGAAUACCAUCUGGCUGAUCUUGCAUCCUUAAUGGACAAAGCGUAUGAAAGAAAAUUGCCUGUUAGUUCUUUAUCAAUAUCACGGUUUGUGGACAACAUUGCAUCCCGAGAAGAUCUAGAUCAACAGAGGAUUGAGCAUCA	0.809
